Measured values collected from several papers.
Lines come from different studies, so protocols differ. ± marks the error that the study gave.
UniProt P54646, sequence (whole entry, looked up): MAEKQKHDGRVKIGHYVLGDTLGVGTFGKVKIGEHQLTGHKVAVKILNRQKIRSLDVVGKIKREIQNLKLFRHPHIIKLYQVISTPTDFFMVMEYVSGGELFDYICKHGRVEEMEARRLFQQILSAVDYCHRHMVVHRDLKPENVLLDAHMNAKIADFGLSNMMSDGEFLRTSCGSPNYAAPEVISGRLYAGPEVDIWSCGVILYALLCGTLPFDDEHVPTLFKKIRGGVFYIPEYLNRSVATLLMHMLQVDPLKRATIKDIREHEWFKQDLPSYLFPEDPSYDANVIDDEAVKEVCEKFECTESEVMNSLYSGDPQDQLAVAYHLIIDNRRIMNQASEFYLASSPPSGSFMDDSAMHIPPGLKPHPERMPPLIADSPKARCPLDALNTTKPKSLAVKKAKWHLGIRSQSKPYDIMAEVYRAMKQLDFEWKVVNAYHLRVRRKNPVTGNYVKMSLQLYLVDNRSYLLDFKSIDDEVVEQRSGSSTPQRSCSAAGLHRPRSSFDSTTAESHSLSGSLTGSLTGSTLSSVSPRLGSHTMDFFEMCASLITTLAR
UniProt P27448, sequence (whole entry, looked up): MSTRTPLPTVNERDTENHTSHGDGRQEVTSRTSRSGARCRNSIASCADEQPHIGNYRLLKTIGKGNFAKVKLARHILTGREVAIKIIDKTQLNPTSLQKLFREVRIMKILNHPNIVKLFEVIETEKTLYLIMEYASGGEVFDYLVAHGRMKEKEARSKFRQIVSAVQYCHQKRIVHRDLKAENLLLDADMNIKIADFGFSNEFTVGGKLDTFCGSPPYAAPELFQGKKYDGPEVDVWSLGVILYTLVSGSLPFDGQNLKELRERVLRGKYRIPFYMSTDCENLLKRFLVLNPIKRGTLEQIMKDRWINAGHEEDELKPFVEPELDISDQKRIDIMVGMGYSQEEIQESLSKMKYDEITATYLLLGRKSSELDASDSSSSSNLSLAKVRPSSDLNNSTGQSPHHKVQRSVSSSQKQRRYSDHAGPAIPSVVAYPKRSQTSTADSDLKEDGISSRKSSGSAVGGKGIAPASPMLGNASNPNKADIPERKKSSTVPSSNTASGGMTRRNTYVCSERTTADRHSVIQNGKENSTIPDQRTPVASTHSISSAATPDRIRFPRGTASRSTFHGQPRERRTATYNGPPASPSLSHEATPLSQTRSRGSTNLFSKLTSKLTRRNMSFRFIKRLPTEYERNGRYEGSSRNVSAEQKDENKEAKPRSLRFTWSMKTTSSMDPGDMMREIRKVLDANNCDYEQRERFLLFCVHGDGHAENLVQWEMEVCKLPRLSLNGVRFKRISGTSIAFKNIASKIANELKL
UniProt P20618, sequence (whole entry, looked up): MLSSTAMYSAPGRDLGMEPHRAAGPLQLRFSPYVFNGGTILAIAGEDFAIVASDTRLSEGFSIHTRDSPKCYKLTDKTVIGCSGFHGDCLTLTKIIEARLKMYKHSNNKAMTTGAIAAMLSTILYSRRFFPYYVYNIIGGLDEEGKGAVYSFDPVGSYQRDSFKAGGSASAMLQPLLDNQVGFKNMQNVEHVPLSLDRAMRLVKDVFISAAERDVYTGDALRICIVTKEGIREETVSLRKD
UniProt P20309, sequence (whole entry, looked up): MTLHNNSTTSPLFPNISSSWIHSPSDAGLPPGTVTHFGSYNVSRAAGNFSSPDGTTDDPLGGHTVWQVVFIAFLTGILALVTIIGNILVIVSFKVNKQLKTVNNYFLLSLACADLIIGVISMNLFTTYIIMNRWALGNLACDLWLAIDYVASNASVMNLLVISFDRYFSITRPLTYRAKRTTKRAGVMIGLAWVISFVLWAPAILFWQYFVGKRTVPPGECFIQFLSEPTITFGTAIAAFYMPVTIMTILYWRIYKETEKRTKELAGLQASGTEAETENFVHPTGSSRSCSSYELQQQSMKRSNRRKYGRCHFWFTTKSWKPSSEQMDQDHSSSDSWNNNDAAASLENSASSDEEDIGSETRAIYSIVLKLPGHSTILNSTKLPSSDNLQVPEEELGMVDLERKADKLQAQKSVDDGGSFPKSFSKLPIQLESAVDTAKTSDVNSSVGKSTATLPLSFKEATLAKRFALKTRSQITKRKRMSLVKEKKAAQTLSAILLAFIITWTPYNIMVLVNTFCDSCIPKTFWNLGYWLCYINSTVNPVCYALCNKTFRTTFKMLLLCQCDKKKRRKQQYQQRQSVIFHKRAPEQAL
UniProt P0DMS8, sequence (whole entry, looked up): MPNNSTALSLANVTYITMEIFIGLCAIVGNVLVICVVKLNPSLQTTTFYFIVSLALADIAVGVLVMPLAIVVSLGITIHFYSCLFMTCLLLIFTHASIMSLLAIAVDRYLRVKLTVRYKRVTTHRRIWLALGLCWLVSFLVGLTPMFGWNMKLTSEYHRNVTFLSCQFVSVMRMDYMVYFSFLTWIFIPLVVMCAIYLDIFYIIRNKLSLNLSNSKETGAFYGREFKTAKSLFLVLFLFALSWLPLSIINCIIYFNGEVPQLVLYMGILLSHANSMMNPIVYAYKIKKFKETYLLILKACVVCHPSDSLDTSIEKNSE
UniProt Q96DB2, sequence (whole entry, looked up): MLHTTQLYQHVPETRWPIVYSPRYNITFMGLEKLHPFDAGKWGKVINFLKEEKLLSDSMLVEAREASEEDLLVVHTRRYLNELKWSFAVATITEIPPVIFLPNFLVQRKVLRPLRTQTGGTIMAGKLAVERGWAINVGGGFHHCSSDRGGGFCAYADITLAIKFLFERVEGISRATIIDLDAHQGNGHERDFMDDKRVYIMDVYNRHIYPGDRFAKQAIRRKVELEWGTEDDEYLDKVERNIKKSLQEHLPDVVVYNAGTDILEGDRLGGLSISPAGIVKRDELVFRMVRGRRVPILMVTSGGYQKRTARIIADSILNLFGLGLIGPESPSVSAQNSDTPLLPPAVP
UniProt P28074, sequence (whole entry, looked up): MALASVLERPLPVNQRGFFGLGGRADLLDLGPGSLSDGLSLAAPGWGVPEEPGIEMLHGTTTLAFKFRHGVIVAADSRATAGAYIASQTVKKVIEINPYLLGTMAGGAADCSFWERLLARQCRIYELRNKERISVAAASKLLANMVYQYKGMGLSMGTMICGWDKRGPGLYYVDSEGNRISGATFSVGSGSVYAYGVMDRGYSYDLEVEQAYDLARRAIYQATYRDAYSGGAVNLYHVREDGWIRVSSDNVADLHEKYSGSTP
UniProt Q9NYV4, sequence (whole entry, looked up): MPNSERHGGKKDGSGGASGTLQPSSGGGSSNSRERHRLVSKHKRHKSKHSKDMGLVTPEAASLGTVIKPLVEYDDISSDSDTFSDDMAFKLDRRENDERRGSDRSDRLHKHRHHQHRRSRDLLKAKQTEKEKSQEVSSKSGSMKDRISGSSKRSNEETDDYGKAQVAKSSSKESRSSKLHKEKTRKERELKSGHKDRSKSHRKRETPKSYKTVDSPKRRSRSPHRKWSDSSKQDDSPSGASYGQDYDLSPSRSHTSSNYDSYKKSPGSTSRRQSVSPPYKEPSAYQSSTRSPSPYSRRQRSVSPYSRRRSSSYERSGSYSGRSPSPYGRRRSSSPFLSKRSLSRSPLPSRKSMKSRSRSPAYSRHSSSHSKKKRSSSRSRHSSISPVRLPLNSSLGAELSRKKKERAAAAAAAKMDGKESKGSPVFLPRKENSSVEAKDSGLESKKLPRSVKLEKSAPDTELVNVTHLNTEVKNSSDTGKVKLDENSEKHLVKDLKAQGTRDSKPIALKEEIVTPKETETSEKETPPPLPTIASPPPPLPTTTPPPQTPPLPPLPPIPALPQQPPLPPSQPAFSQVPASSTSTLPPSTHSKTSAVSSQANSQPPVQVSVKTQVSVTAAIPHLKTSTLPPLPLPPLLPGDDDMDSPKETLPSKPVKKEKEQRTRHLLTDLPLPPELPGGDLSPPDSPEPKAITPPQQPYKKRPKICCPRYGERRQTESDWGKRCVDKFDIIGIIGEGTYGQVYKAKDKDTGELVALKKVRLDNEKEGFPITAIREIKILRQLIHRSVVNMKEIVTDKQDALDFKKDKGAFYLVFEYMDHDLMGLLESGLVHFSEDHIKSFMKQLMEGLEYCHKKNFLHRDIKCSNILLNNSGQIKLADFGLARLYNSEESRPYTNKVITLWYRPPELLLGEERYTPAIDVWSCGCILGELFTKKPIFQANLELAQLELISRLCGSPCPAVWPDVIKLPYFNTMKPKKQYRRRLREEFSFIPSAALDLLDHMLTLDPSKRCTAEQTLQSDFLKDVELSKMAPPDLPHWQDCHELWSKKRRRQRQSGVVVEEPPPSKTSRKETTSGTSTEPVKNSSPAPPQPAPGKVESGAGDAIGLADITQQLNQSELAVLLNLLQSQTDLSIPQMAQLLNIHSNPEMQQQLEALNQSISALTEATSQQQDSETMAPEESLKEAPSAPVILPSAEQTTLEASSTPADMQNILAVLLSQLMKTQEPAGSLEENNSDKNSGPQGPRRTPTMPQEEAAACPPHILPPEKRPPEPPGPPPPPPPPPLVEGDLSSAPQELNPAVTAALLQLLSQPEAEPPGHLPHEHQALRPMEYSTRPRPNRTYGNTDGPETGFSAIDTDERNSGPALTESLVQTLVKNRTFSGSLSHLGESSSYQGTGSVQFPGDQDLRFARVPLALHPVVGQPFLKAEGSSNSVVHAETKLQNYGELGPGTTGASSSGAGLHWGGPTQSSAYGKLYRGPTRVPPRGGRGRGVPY
UniProt P41145, sequence (whole entry, looked up): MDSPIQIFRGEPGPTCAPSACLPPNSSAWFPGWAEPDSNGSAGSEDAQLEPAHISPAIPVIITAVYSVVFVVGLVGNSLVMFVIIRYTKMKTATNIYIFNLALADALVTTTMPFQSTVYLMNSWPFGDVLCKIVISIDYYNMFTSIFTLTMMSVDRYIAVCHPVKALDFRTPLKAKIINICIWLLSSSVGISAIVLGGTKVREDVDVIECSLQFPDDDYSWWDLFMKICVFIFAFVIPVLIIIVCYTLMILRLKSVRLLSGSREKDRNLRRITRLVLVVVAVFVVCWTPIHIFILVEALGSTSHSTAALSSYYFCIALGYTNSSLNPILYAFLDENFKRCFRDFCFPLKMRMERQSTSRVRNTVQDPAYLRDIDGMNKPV

| Structure (SMILES) | tested on | assay | test system | conditions | scale | quantity | value |
| --- | --- | --- | --- | --- | --- | --- | --- |
| O=C1NC2(CC2)COc2ncc(F)cc2[C@H]2COCCN2c2ccn3ncc1c3n2 | – | – | Sprague-Dawley rat, female, blood | oral, 2.5 mg/kg/day, end of treatment, 4-week repeated-dose toxicity | reference: red blood cells | reticulocytes | 2.09 ± 1.38% |
| CCCCCCCCCCCCCCN(O)C(=O)CCCCC[C@@H]1NC(=O)[C@H]2CCCN2C(=O)[C@H](Cc2ccccc2)NC(=O)[C@H](Cc2ccccc2)NC1=O | HDAC11 (Homo sapiens, UniProt Q96DB2) | inhibitor | – | – | reference: Ki HDAC1 over Ki HDAC11 | selectivity ratio | 8.6 |
| F[B-](F)(F)c1ccc(/N=N/c2ccccc2)cc1.[K+] | Chymotrypsinogen A (Bos taurus, UniProt P00766) | enzyme activity, inhibitor | – | with: Suc-AAPF-AMC | reference: Ki cis over Ki trans | switching factor | 1.9 ± 0.3 |
| O=C1NC(=O)c2c1c1cc(F)c[n+]3c1c1c2c2cc(O)ccc2[n]1[Ru-4]312([N]=C=S)[S+]3CC[S+]1CC[S+]2CC3 (stereo not shown) | PRKCD (Homo sapiens, UniProt Q05655) | enzyme activity | – | 100 nM, human enzyme, with: 10 µM ATP | reference: untreated | remaining activity | 73% |
| C[n+]1cn([C@@H]2O[C@H](COP(=O)([S-])OP(=O)(O)OP(=O)(O)OP(=O)([S-])OC[C@H]3O[C@@H](n4c[n+](C)c5c(O)nc(N)nc54)[C@H](O)[C@@H]3O)[C@@H](O)[C@H]2O)c2nc(N)nc(O)c21 (stereo partly shown) | mRNA decapping complex subunit 2 (dcp2, Schizosaccharomyces pombe, UniProt O13828) | single-turnover kinetics | 29-nt native-capped RNA substrate | 0.25 mM | – | kmax | 0.28 ± 0.04 min⁻¹ |
| O=C(Cc1ccc(F)c(Cl)c1)N1CCN[C@@H]2COC[C@H](N3CCCC3)[C@H]21 (relative stereo) | OPRK1 (Homo sapiens, UniProt P41145) | agonist | – | 0.3333 h | – | Emax | 93 ± 23.8% |
| CS(C)(=O)=Nc1ccc(-c2ccc(-c3nc4cc(O[C@@H]5CO[C@H]6[C@@H]5OC[C@H]6O)[nH]c4cc3F)cc2)cc1 | PRKAA2 (Homo sapiens, UniProt P54646) | enzyme activity, inhibitor | – | 10 µM | – | inhibition | 19% |
| Cc1sc2c(c1C)C(c1ccc(Cl)cc1)=NC(CC(=O)OC(C)(C)C)c1nnc(C)n1-2 (stereo not shown) | ADORA3 (Homo sapiens, UniProt P0DMS8) | ligand displacement, radioligand | – | 1 µM | – | remaining binding | 39.3% |
| COc1ccccc1-c1nc2sc3c(c2c(=O)o1)CCC3 | Genome polyprotein, 3C protease (rhinovirus B14, UniProt P03303) | protease activity, SAMDI-MS | – | – | – | Hill slope | 1.08 |
| Nc1ccc(/C=C/C(=O)N2CCc3c(oc4c(-c5ccc(F)cc5)cc(-c5ccc(C(=O)N6CCC(F)(F)CC6)cn5)cc34)C2)cn1 | MARK3 (Homo sapiens, UniProt P27448) | binding, competition with immobilised ligand | – | 1 µM | – | remaining binding | 99% |
| CCc1nnc(-c2c(OC)cc(-c3cnc4cc(-c5cnn(C)c5)ccn34)cc2OC)o1 | CHRM3 (Homo sapiens, UniProt P20309) | antagonist radioligand, radioligand binding | – | 10 µM, SafetyScreen44 M3 replicate 2 | lower = stronger displacement | remaining binding | 97.8% |
| CN1CCC[C@@H]1C(=O)N[C@@H](Cc1ccc(-c2ccccc2)cc1)B(O)O | Proteasome component C5/PSMB5 (Homo sapiens, UniProt P20618+P28074) | Ac-WLA-AMC cleavage | – | with: PA28αβ | reference: Tris over HEPES buffer | IC50 ratio | 4.8 |
| C#CCCCCOc1ccc2c(c1)CCCN2C(=O)CCl | Small ribosomal subunit protein uS17 (Homo sapiens, UniProt P62280) | mass spectrometry profiling, refers to: RPS11 | H460 cell lysate | 100 µM over 10 µM, UniProt P62280 | reference: high over low concentration | reactivity ratio | 1.6 |
| CN(C)[C@H]1C[C@@]23CC[C@@]4(O2)C(=CC[C@]2(C)[C@@H](c5ccc6ccncc6c5)CC[C@H]24)C=C3[C@@H](O)[C@@H]1O | CDK12 (Homo sapiens, UniProt Q9NYV4) | ATP probe labelling, inhibitor, KiNativ profiling | – | 0.1 µM | – | inhibition | 6.9% |
| CC(C)(C)C(=O)OCOP(=O)(OCOC(=O)C(C)(C)C)C1CCCN(O)C1=O (stereo not shown) | HCC 2998 | – | – | – | – | TGI | 5.59 µM |
| COc1ccccc1-c1n[nH]c2nc(NC3CCN(C(=O)Cc4ccc(F)cc4F)CC3)ncc12 | – | bead binding, competition bead pull-down, refers to: LMJF.21.0280 | Leishmania donovani axenic amastigote extract | 10 µM | reference: vehicle | relative abundance | 0.84 |

Some of these lines once more:
| Structure (SMILES) | tested on | assay | test system | conditions | scale | quantity | value |
| --- | --- | --- | --- | --- | --- | --- | --- |
| CC(C)(C)C(=O)OCOP(=O)(OCOC(=O)C(C)(C)C)C1CCCN(O)C1=O (stereo not shown) | HCC 2998 | – | – | – | – | TGI | 5.59 µM |
| C#CCCCCOc1ccc2c(c1)CCCN2C(=O)CCl | Small ribosomal subunit protein uS17 (Homo sapiens, UniProt P62280) | mass spectrometry profiling, refers to: RPS11 | H460 cell lysate | 100 µM over 10 µM, UniProt P62280 | reference: high over low concentration | reactivity ratio | 1.6 |
